Assay results of several laboratories.
Each numbered part is a random draw from the data of one study; scales do not carry over between parts.
Chain of UniProt Q92985 (whole entry, unmodified, looked up): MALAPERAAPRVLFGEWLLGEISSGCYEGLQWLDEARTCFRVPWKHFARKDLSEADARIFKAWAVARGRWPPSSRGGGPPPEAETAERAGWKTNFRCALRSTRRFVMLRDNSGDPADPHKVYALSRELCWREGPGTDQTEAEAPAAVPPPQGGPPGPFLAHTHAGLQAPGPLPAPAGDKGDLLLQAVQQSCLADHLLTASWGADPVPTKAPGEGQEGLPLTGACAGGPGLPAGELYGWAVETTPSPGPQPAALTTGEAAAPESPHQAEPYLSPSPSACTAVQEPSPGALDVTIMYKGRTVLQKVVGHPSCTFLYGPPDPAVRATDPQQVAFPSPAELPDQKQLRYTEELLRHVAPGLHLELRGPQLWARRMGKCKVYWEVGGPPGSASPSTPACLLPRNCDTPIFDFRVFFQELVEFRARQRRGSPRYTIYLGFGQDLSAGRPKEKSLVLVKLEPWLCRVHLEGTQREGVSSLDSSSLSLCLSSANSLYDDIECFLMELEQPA

Block 1
Target: Histone acetyltransferase KAT6A, winged helix 2, GST fusion (KAT6A, Homo sapiens, UniProt Q92794, residues 85-181)
Technique: protein binding microarray
Molecule type: double-stranded DNA, one strand shown
Matrix: in vitro
Concentration: not given
Notes: 8-mer, flanks averaged, mean of 2 arrays, mostly near background
Reference: not given
Direction: higher = stronger binding
Construct (chain): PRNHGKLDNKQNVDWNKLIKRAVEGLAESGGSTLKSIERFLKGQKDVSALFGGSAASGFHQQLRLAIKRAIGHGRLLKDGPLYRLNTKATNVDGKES
The E-score of `ATCTGTAC` is reported as -0.127.
For `GCAATGAC`, the E-score was 0.0452.
For `ACAAGTCA`, the E-score was -0.131.
`ACCCCCGC` has an E-score of -0.015.

Block 2
Target: Sal-like protein 4, full length isoform B (SALL4, Homo sapiens, UniProt Q9UJQ4-2, residues 1-616)
Technique: universal PBM
Molecule type: double-stranded DNA, one strand shown
Matrix: in vitro
Concentration: not given
Notes: 8-mer, flanks averaged, mean of replicates
Direction: higher = stronger binding
With `CTGGACTA` the E-score was -0.135.
For `CAAGGCTG`, the E-score was -0.189.
`CGATGACC` gave an E-score of -0.163.
`ACCTATCT` has an E-score of 0.0959.

Further values, each from its own experiment
`PhoQ, residues 284 288 289 292 302 303 TGYLSA` gave a fold induction of 13.5 (PhoP, residues 12 14 15 18 19 TTLRV (Escherichia coli, UniProt P23836); Sort-seq, item: YFP reporter; E. coli; PhoQ-PhoP variant library, added: 10 µM Mg2+; reference: high Mg2+ state, higher = stronger signaling).
`GCCTAGCACTCAAGAATAATTTTTTAGACTGTGCTAGTCTTGATTCGCTTGACGCTGCTG`: “fitted relative affinity” -1.03 z-score (Interferon regulatory factor 7, full length, phosphomimetic (IRF7, Homo sapiens, UniProt Q92985, residues 1-503, S471D/S472D/S475D/S476D/S477D/S483D/S484D/S487D); protein-binding microarray; double-stranded DNA, one strand shown, in vitro; 2200 nM top, 60-bp whole probe, added: salmon DNA 0.4 mg/ml; reference: random background probes, higher = stronger binding).

For quick reference, copied from above (further values, each from its own experiment):
`GCCTAGCACTCAAGAATAATTTTTTAGACTGTGCTAGTCTTGATTCGCTTGACGCTGCTG`: “fitted relative affinity” -1.03 z-score (Interferon regulatory factor 7, full length, phosphomimetic (IRF7, Homo sapiens, UniProt Q92985, residues 1-503, S471D/S472D/S475D/S476D/S477D/S483D/S484D/S487D); protein-binding microarray; double-stranded DNA, one strand shown, in vitro; 2200 nM top, 60-bp whole probe, added: salmon DNA 0.4 mg/ml; reference: random background probes, higher = stronger binding).
